Measured values gathered from unrelated publications.
Compare with care: the assays were run in different laboratories.

For `CC[C@H](C)[C@H](NC(=O)CNC(=O)[C@H](CSCC(N)=O)NC(=O)[C@@H](NC(=O)CNC(=O)[C@H](CCCNC(=N)N)NC(=O)[C@@H](NC(=O)[C@H](CCCNC(=N)N)NC(=O)[C@H](CCC(=O)O)NC(=O)CNC(=O)[C@H](CCCNC(=N)N)NC(=O)[C@H](CCCCN)NC(=O)[C@H](CSCC(N)=O)NC(=O)[C@H](Cc1c[nH]cn1)NC(=O)CNC(=O)[C@H](CCCCN)NC(=O)[C@H](CCCNC(=N)N)NC(=O)[C@H](CSCC(N)=O)NC(=O)[C@H](Cc1ccc(O)cc1)NC(=O)[C@@H](N)CSCC(N)=O)C(C)C)[C@@H](C)O)C(=O)N[C@@H](CCCNC(=N)N)C(=O)N[C@@H](Cc1ccccc1)C(=O)N[C@@H](CC(C)C)C(=O)N[C@@H](Cc1ccc(O)cc1)C(=O)N[C@@H](CSCC(N)=O)C(=O)N[C@@H](CSCC(N)=O)C(=O)N1CCC[C@H]1C(=O)N[C@@H](CCCNC(=N)N)C(=O)N[C@@H](CCCNC(=N)N)C(=O)NCC(=O)N[C@@H](CC(C)C)C(=O)N[C@@H](CC(C)C)C(=O)NO`, “time to complete proteolysis” read 10 to 30 min (100% human serum; 27 µM, 37 °C, heat-inactivated serum).
`CSCC[C@H](NC(=O)[C@H](CC(N)=O)NC(=O)[C@@H](N)Cc1ccccc1)C(=O)N[C@@H](CCC(N)=O)C(=O)N[C@@H](C)C(=O)N[C@@H](CCC(N)=O)C(=O)N[C@@H](CCCNC(=N)N)C(=O)N[C@@H](CCCNC(=N)N)C(=O)N[C@@H](Cc1ccccc1)C(=O)N[C@@H](Cc1ccc(O)cc1)C(=O)N[C@@H](CCC(=O)O)C(=O)N[C@@H](C)C(=O)N[C@@H](CC(C)C)C(=O)N[C@@H](Cc1c[nH]cn1)C(=O)N[C@@H](CC(=O)O)C(=O)NCC(=O)NCC(=O)NCC(=O)NCC(=O)N[C@@H](CO)C(=O)N[C@@H](C)C(=O)N[C@@H](CCC(=O)O)C(=O)N[C@@H](C)C(=O)N[C@@H](CCC(=O)O)C(=O)N[C@@H](C)C(=O)N[C@@H](CCCCN)C(=O)N[C@@H](C)C(=O)N[C@@H](CCCCN)C(=O)N[C@@H](C)C(=O)N[C@@H](CCC(=O)O)C(=O)N[C@@H](C)C(=O)N[C@@H](CCC(=O)O)C(=O)N[C@@H](C)C(=O)N[C@@H](CCCCN)C(=O)N[C@@H](C)C(=O)N[C@@H](CCCCN)C(=O)O` — result for “time to microstructure formation”: 3 h (Congo red; PBS).
`CC[C@H](C)[C@H](NC(=O)[C@H](CCCNC(=N)N)NC(=O)[C@H](CC(C)C)NC(=O)[C@@H](N)Cc1ccccc1)C(=O)N[C@@H](CCCNC(=N)N)C(=O)N1CCC[C@H]1C(=O)N[C@@H](CCCCN)C(=O)O`: “time to complete degradation” at most 4 h (RP-HPLC; rat plasma; 37 °C).
Under “time to death”, `C[C@]12CC[C@H](OC(=O)NC3CCNCC3)C[C@H]1CC[C@@H]1[C@@H]2CC[C@]2(C)[C@@H](c3ccc(=O)oc3)CC[C@]12O` is recorded as 24 h (male pigmented guinea pigs; intraperitoneal, 6 mg/kg).
`O=C(Cc1ccc2ccccc2c1)N[C@H](Cc1ccccc1)C(=O)N[C@H](Cc1ccc(O)cc1)C(=O)N[C@H](Cc1ccccc1)C(=O)N[C@H](Cc1ccc(OP(=O)(O)O)cc1)C(=O)O`: “time to 50% dephosphorylation” at most 120 min (substrate; SAOS-2 cell lysate; 500 µM, pH 7.4, 37 °C).
For `CC[C@H](C)[C@@H]1NC(=O)[C@H](CCCCN)NC(=O)[C@H]([C@@H](C)O)NC(=O)[C@H](Cc2ccccc2)NC(=O)[C@H]([C@@H](C)CC)NC(=O)[C@@H]2CCCN2C(=O)[C@@H](N)CSSC[C@@H](C(=O)NCC(=O)NCC(=O)N[C@@H](CCCNC(=N)N)C(=O)N[C@@H](CCCNC(=N)N)C(=O)N[C@@H](CCCCN)C(=O)N[C@@H](CCCCN)C(=O)O)NC(=O)[C@H]([C@@H](C)O)NC(=O)CNC(=O)[C@H](CCC(N)=O)NC1=O`, “time to complete degradation” read 2 h (LC-MS; human serum 20% v/v).
`CC[C@H](C)[C@@H]1NC(=O)[C@H](CC(N)=O)NC(=O)[C@@H]2CCCN2C(=O)[C@@H](NC(=O)[C@H](CC(N)=O)NC(=O)[C@@H](N)CCC(N)=O)COC(=O)[C@H](CCSC)NC(=O)[C@H](Cc2c[nH]c3ccccc23)NC(=O)[C@H](CCC(N)=O)NC(=O)CNC(=O)[C@H](Cc2ccccc2)NC1=O`: “time to complete conversion” at most 24 h (measured: pyroglutamyl ring-opened product; ammonium carbonate; pH 8, 25 °C).
For `CC[C@H](C)[C@@H]1NC(=O)[C@H](Cc2ccc(O)cc2)NC(=O)[C@@H](N)Cc2cn(nn2)CCCC[C@@H](C(=O)N2CCC[C@H]2C(=O)N[C@@H](CC(C)C)C(=O)NCC(N)=O)NC(=O)[C@H](CC(N)=O)NC(=O)[C@H](CCC(N)=O)NC1=O`, “time to disappearance” read 10 days (RP-HPLC; human pregnancy serum; 37 °C).
For `CC(C)(C)OC(=O)C[C@H](NC(=O)OCc1ccccc1)C(=O)CBr`, “time to onset of degradation” read over 6 h (mass spectrometry; solution; loss of tert-butyl group).
Under “time to complete degradation”, `CC[C@H](C)[C@@H]1NC(=O)[C@H](CC(N)=O)NC(=O)[C@@H]2CCCN2C(=O)[C@@H](NC(=O)[C@H](CC(N)=O)NC(=O)[C@@H](N)CCC(N)=O)COC(=O)[C@H](CCSC)NC(=O)[C@H](Cc2c[nH]c3ccccc23)NC(=O)[C@H](CCC(N)=O)NC(=O)CNC(=O)[C@H](Cc2ccccc2)N(C)C1=O` is recorded as 2 h (human plasma; 37 °C).
`CC[C@H](C)[C@@H]1NC(=O)[C@H]([C@@H](C)O)NC(=O)[C@H](CO)NC(=O)[C@H](CCSC)NC(=O)[C@H](CCCNC(=N)N)NC(=O)[C@@H]2CCCN2C(=O)[C@H](CC(=O)O)NC(=O)CNC(=O)[C@@H]2CSSC[C@@H]3NC(=O)[C@H]([C@@H](C)O)NC(=O)[C@H](CCCCN)NC(=O)[C@@H]4CCCN4C(=O)[C@H](CSSC[C@H](NC(=O)[C@H](C(C)C)NC(=O)[C@H](CC(N)=O)NC(=O)[C@H](CCC(N)=O)NC(=O)[C@@H]4CCCN4C(=O)[C@H]([C@@H](C)CC)NC(=O)[C@H](CCCNC(=N)N)NC(=O)[C@H](CC(=O)O)NC(=O)[C@H](CCCNC(=N)N)NC(=O)[C@@H](N)CSSC[C@@H](C(N)=O)NC(=O)[C@H](CCCCN)NC(=O)CNC3=O)C(=O)N[C@@H](CCC(=O)O)C(=O)N[C@@H](CCC(N)=O)C(=O)N[C@@H](CCSC)C(=O)N[C@@H](CCCCN)C(=O)N[C@@H](CCCCN)C(=O)N[C@@H](CC(N)=O)C(=O)NCC(=O)N[C@@H](CCCCN)C(=O)N2)NC(=O)[C@H](CCC(N)=O)NC(=O)[C@H](CC(C)C)NC(=O)[C@H](CCC(=O)O)NC(=O)[C@H](C)NC1=O`: “time to complete degradation” 24 h (porcine simulated intestinal fluid).
`COc1cc2ccnc(Cc3ccc(O[11CH3])c(OC)c3)c2cc1OC`: “time to peak radioactivity” about 3 min (PET; rhesus macaque, brain; intravenous, dose not given).
`CC=C(C)C(=O)OC1C2C3(C)CCC(OC4CC(OC)C(OC5OC(C)C(OC6OC(CO)C(O)C(O)C6O)C(OC)C5O)C(C)O4)CC3CCC23OC32CCC(C(C)=O)C2(C)C1OC(C)=O` (centres unmarked) — result for “time to complete conversion”: at most 8 h (pooled human faecal microbiota; 50 µM, 37 °C, anaerobic).
`CC[C@H](C)[C@H](N)C(=O)N[C@@H](CC(N)=O)C(=O)N[C@H]1CSC(=O)[C@H](CC(C)C)NC(=O)[C@H](CC(C)C)NC(=O)[C@H](Cc2ccccc2)NC(=O)[C@H](CC(=O)O)NC1=O`: “time to complete degradation” about 8 h (HPLC; ammonium carbonate; 0.33 mM, pH 8.0, 37 °C).

Repeated from above:
`COc1cc2ccnc(Cc3ccc(O[11CH3])c(OC)c3)c2cc1OC`: “time to peak radioactivity” about 3 min (PET; rhesus macaque, brain; intravenous, dose not given).
